Measured values of several laboratories.
Protocols differ between the studies behind these lines. “And” joins repeats or separate records; there may be more than shown. ± marks the error that the study gave.

SMILES | cell line | effect on | method | time | notes | IC50
C1N2CN3CN1CP(C2)C3.COc1ccc(C(O)=CC(=O)c2ccc(C(C)(C)C)cc2)cc1.Cc1ccc(C(C)C)cc1.[Ru+2] | HL-60 | cytotoxicity |  |  | dark | 0.14 µM
CC(C)C12OC1C1OC13C1(C)CCC4=C(COC4=O)C1CC1OC13C2OC(=O)CCC(=O)OC1OC(CO)C(O)C(O)C1O (stereo not drawn) | sensitive human cancer cell lines | cell viability | XTT |  |  | 0.49 µM
Cc1ccccc1/C=C/C(=O)N[C@H]1COC(=O)[C@H](CC(=O)O)NC(=O)[C@H]([C@@H](O)C(=O)c2ccccc2N)NC(=O)[C@@H](Cc2ccccc2)NC(=O)[C@@H](NC(=O)[C@@H](Cc2ccccc2)NC(=O)CN)[C@@H](C)OC1=O | HCT-116 |  |  |  |  | > 20 µM
CC(=O)N[C@H](C(=O)N[C@@H](CCCNC(=N)N)C(=O)N[C@@H](CCCCN)C(=O)N[C@@H](CCCNC(=N)N)C(=O)N[C@H](C(=O)N[C@@]1(C)CCCC=CCCC[C@@](C)(C(=O)N[C@@H](CCC(N)=O)C(=O)N[C@@H](CCC(=O)O)C(=O)N[C@@H](CCCNC(=N)N)C(=O)N[C@@H](CCC(=O)O)C(=O)N[C@@H](CC(C)C)C(=O)N[C@H](C(=O)N[C@@H](CCC(=O)O)C(N)=O)C(C)C)NC(=O)[C@H](CC(C)C)NC(=O)[C@H](CCCNC(=N)N)NC(=O)[C@H](CCCNC(=N)N)NC1=O)[C@@H](C)O)C(C)C | H1975 (EGFR L858R/T790M) | cell viability | ATP luminescence | 18 h |  | > 100 µM
CCC1(c2ccc(NC(=O)CCC(=O)OC3OC4OC5(C)CCC6C(C)CCC(C3C)C46OO5)cc2)CCC(=O)NC1=O (mixture of isomers) | MCF-10A | cell growth or viability | CCK-8 |  |  | 19.8 µM
CCC1=C(C)C2=C(c3ccc(P(=NC(=O)c4ccccn4)(c4ccccc4)c4ccccc4)cc3)c3c(C)c(CC)c(C)n3[B-](C)(C)[N+]2=C1C | MCF-10A | cell growth or viability | MTT |  |  | 33.7 µM
Cc1cc(Oc2nc(N3CC[C@@H](c4ccncc4)C3)ncc2F)[nH]n1 | MT3 | cell proliferation |  |  |  | 56.2 µM
COc1ccccc1-c1ccncc1C(=O)Nc1nnc(OCc2ccc(Cl)cc2)s1 | Brca1 cc/cc MEFs | colony survival |  |  |  | ~3 µM
Cc1sc2c(c1C)C(c1ccc(-c3cccc(NC(=O)c4cnn5cccnc45)c3)cc1)=N[C@@H](CC(N)=O)c1nnc(C)n1-2 | MOLM-13 | cell growth or viability | ATP luminescence | 72 h |  | 0.0058 µM
Cc1cc(C)cc(COc2cc3c(cc2OCc2cc(C)cc(C)c2)C2CC(O)(Cc4cn(CCOCCOCCOCCNc5cccc6c5C(=O)N(C5CCC(=O)NC5=O)C6=O)nn4)CC(C)N2CC3)c1 (racemic) | ASPC1 | cell growth or viability | MTT |  |  | 0.92 µM
N=C(N)NCCC[C@H](N)C(=O)N[C@@H](CC(=O)N[C@@H](Cc1ccccc1)C(=O)O)c1cccc2ccccc12 | MCF-10A | cell growth or viability |  |  |  | > 35 µM
Cc1cc(Nc2nc(C[C@@]3(C(=O)O)CCN(Cc4cccc(Cl)c4F)[C@H](C)C3)cc(C)c2F)[nH]n1 | HCT-15 | cell growth or viability | ATP luminescence | 5 days |  | 1.75 µM
[CH3][Ti+2][O]C(=O)c1ccc([S][Au][PH](c2ccccc2)(c2ccccc2)[c-]2cccc2)cc1.[Fe+2].c1cc[cH-]c1.c1cc[cH-]c1.c1cc[cH-]c1 | renal proximal tubule cells | cytotoxicity | XTT | 24 h |  | 4.19 ± 0.11 µM
CCOc1ccccc1-n1c(CN2CCNCC2)nc2ccccc2c1=O | Hs766T | cell growth or viability |  | 72 h |  | 0.103 µM
CC(=O)N[C@H](C(=O)N[C@@H](CCCNC(=N)N)C(=O)N[C@@H](CCCCN)C(=O)N[C@@H](CCCNC(=N)N)C(=O)N[C@H](C(=O)N[C@@H](CC(C)C)C(=O)N[C@@H](CCCNC(=N)N)C(=O)N[C@]1(C)CCCC=CCCC[C@@](C)(C(=O)N[C@@H](CCC(=O)O)C(=O)N[C@@H](CCCNC(=N)N)C(=O)N[C@@H](CCC(=O)O)C(=O)N[C@@H](CC(C)C)C(=O)N[C@H](C(=O)N[C@@H](CCC(=O)O)C(N)=O)C(C)C)NC(=O)[C@H](CC(C)C)NC(=O)[C@H](CC(C)C)NC1=O)[C@@H](C)O)C(C)C | H2030 (wild-type EGFR) | cell viability | ATP luminescence | 18 h |  | > 100 µM
CC[C@H](C)[C@@H]1NC(=O)[C@@H]2CCCN2C(=O)[C@H](C)NC(=O)[C@H](CC(C)C)NC(=O)[C@@H]2CCCN2C(=O)[C@H](C)NC(=O)[C@@H]2CSSC[C@H](NC(=O)[C@H](C)NC(=O)[C@H](C)NC(=O)[C@H](Cc3ccc(O)cc3)NC(=O)[C@@H]3CCCN3C(=O)CNC(=O)[C@H](Cc3c[nH]c4ccccc34)NC1=O)C(=O)N[C@@H](CC(C)C)C(=O)N[C@@H](CO)C(=O)N[C@@H](C)C(=O)N[C@H]1CSSC[C@H](NC(=O)[C@H](C(C)C)NC(=O)[C@@H]3CCCN3C(=O)CNC(=O)CNC(=O)CNC(=O)[C@H](C)NC(=O)[C@H](C)NC(=O)[C@H](CC(C)C)NC1=O)C(=O)N[C@@H](CC(C)C)C(=O)N[C@@H](C)C(=O)N[C@@H](C(C)C)C(=O)N2 | CT26 |  |  |  |  | > 128 mg/L
CC(=O)N[C@H](C(=O)N[C@@H](CCCNC(=N)N)C(=O)N[C@@H](CCCCN)C(=O)N[C@@H](CCCNC(=N)N)C(=O)N[C@]1(C)CCCCCCC=CCCC[C@@](C)(C(=O)N[C@@H](CCCNC(=N)N)C(=O)N[C@@H](CCC(=O)O)C(=O)N[C@@H](CC(C)C)C(=O)N[C@H](C(=O)N[C@@H](CCC(=O)O)C(N)=O)C(C)C)NC(=O)[C@H](CCC(N)=O)NC(=O)[C@H](C)NC(=O)[C@H](C)NC(=O)[C@H](CCCNC(=N)N)NC(=O)[C@H](CCCNC(=N)N)NC(=O)[C@H](C)NC1=O)C(C)C | H2030, wild-type EGFR |  |  |  |  | 4.57 µM and 7.94 µM
CC(C)C12OC1C1OC13C1(C)CCC4=C(COC4=O)C1CC1OC13C2OC(=O)CCCOC1OC(CO)C(O)C(O)C1O (stereo not drawn) | SK-MEL3 | cell growth or viability | XTT | 47 h |  | 0.44 µM
CC(=O)N[C@H](C(=O)N[C@@H](CCCNC(=N)N)C(=O)N[C@@H](CCCCN)C(=O)N[C@@H](CCCNC(=N)N)C(=O)N[C@H](C(=O)N[C@@H](CC(C)C)C(=O)N[C@@H](CCCNC(=N)N)C(=O)N[C@@H](CCCNC(=N)N)C(=O)N[C@]1(C)CCCC=CCCC[C@@](C)(C(=O)N[C@@H](CCCNC(=N)N)C(=O)N[C@@H](CCC(=O)O)C(=O)N[C@@H](CC(C)C)C(=O)N[C@H](C(=O)N[C@@H](CCC(=O)O)C(N)=O)C(C)C)NC(=O)[C@H](CCC(N)=O)NC(=O)[C@H](CC(C)C)NC1=O)[C@@H](C)O)C(C)C | H1975 (EGFR L858R/T790M) | cell viability | ATP luminescence | 18 h |  | ~60 µM
CCC1=C(C)C2=C(c3ccc(C(=O)NCCNC(=O)c4ccc(P(=NC(=O)c5ccccn5)(c5ccccc5)c5ccccc5)cc4)cc3)c3c(C)c(CC)c(C)n3[B-](F)(F)[N+]2=C1C | MCF-10A | cell growth or viability | MTT |  |  | > 250 µM
CC(=O)N[C@H](C(=O)N[C@@H](CCCNC(=N)N)C(=O)N[C@@H](CCCCN)C(=O)N[C@@H](CCCNC(=N)N)C(=O)N[C@]1(C)CCCCCCC=CCCC[C@@](C)(C(=O)N[C@@H](CCCNC(=N)N)C(=O)N[C@@H](CCC(=O)O)C(=O)N[C@@H](CC(C)C)C(=O)N[C@H](C(=O)N[C@@H](CCC(=O)O)C(N)=O)C(C)C)NC(=O)[C@H](CCC(N)=O)NC(=O)[C@H](CC(C)C)NC(=O)[C@H](CC(C)C)NC(=O)[C@H](CCCNC(=N)N)NC(=O)[C@H](CCCNC(=N)N)NC(=O)[C@H](CC(C)C)NC1=O)C(C)C | H2030 (wild-type EGFR) | cell viability | ATP luminescence | 18 h |  | 1.58 ± 0.43 µM
O=C(Cc1ccc(Cl)cc1)N1CCN(CC(OCc2ccc3ccccc3c2)c2ccc(Cl)cc2Cl)CC1 (stereo not drawn) | MDA-MB-468 | cell growth or viability | MTT | 24 h |  | 15 µM
Cc1ccc(C(C)C)cc1.Cc1ccc(C(C)C)cc1.Cc1ccc(C(C)C)cc1.Cc1ccc(C(C)C)cc1.O=S(=O)(O)C(F)(F)F.O=S(=O)(O)C(F)(F)F.O=S(=O)(O)C(F)(F)F.O=S(=O)(O)C(F)(F)F.c1ccc2c3c4ccccc4c(c2c1)-c1cn(nn1)-c1cc[n+](cc1)[Ru-]1[O]c2ccc4c5c(ccc(c25)=[O+]1)=[O+][Ru-]([O]4)[n+]1ccc(cc1)-n1cc(nn1)-c1c2ccccc2c(c2ccccc12)-c1cn(nn1)-c1cc[n+](cc1)[Ru-]1[O]c2ccc4c5c(ccc(c25)=[O+]1)=[O+][Ru-]([O]4)[n+]1ccc(cc1)-n1cc-3nn1 | HCT-15 | cell growth | MTT | 24 h | 20 µM preincubated in medium 0 h at 37 °C | 4.3 ± 0.25 µM
CC(=O)N[C@H](C(=O)N[C@@H](CCCNC(=N)N)C(=O)N[C@@H](CCCCN)C(=O)N[C@@H](CCCNC(=N)N)C(=O)N[C@H](C(=O)N[C@@H](CC(C)C)C(=O)N[C@@H](CCCNC(=N)N)C(=O)N[C@@]1(C)CCCC=CCCC[C@@](C)(C(=O)N[C@@H](CCCNC(=N)N)C(=O)N[C@@H](CCC(=O)O)C(=O)N[C@@H](CC(C)C)C(=O)N[C@H](C(=O)N[C@@H](CCC(=O)O)C(N)=O)C(C)C)NC(=O)[C@H](CCC(N)=O)NC(=O)[C@H](CC(C)C)NC(=O)[C@H](CC(C)C)NC1=O)[C@@H](C)O)C(C)C | H2030 (wild-type EGFR) | cell viability | ATP luminescence | 18 h |  | 2.44 ± 0.88 µM

Some of these lines once more:
SMILES | cell line | effect on | method | time | notes | IC50
O=C(Cc1ccc(Cl)cc1)N1CCN(CC(OCc2ccc3ccccc3c2)c2ccc(Cl)cc2Cl)CC1 (stereo not drawn) | MDA-MB-468 | cell growth or viability | MTT | 24 h |  | 15 µM
